{"data": "Published values collected from several papers", "note": "Every numbered part comes from another study and shows a few of its results, in no order. Changes are numbered by the printed parent chain.", "sequence of UniProt P28335 (whole entry, looked up)": "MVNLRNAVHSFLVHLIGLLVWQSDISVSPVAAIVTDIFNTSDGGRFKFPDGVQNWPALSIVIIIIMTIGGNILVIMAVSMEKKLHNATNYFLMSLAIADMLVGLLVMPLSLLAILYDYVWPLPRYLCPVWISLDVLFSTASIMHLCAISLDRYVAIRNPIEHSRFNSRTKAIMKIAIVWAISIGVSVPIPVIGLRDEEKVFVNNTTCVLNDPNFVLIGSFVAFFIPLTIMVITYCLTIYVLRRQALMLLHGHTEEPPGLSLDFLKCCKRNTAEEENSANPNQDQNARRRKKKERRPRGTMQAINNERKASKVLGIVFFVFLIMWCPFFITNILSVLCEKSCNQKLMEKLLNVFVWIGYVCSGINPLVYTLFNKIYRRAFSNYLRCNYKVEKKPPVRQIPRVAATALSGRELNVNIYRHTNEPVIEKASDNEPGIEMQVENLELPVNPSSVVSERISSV"}
{"data": "Block 1", "target": "UDP-N-acetylglucosamine--peptide N-acetylglucosaminyltransferase 110 kDa subunit (OGT, Homo sapiens, UniProt O15294)", "observed": "binding", "method": "phage display NGS", "form": "peptide", "reference": "input library", "sequence of UniProt O15294 (whole entry, looked up)": "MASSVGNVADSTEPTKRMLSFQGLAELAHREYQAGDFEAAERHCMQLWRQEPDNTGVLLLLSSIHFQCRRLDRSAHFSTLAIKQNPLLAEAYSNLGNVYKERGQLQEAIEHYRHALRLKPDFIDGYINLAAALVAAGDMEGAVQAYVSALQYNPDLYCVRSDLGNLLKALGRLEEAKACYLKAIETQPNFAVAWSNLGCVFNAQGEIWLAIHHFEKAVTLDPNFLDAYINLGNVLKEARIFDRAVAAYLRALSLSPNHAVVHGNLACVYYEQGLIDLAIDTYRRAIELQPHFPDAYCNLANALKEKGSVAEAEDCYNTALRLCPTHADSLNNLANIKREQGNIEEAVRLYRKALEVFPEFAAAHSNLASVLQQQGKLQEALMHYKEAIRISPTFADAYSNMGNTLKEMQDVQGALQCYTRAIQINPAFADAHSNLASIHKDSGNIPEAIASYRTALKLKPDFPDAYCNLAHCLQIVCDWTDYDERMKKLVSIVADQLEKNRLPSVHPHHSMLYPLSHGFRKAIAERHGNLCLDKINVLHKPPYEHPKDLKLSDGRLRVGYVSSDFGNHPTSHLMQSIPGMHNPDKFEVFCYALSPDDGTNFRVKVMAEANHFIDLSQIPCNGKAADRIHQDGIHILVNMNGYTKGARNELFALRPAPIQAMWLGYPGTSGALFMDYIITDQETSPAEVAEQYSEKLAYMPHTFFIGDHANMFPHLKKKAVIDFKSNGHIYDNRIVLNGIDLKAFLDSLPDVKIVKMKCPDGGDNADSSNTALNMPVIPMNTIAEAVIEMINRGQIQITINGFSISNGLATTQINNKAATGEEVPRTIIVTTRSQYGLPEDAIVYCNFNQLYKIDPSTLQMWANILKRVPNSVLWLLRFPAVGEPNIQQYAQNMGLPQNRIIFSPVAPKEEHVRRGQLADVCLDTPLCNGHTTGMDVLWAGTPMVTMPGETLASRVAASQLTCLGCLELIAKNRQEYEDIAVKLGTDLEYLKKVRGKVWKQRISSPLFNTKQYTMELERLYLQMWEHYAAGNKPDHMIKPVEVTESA"}
{"Molecule": "HALHHGSDLHYVVRT", "minimum log2 enrichment ratio": 3.19}
{"Molecule": "VVQQEYRPRYQISFK", "minimum log2 enrichment ratio": 2.03}
{"Molecule": "HQMPFAFHHDHPFVH", "minimum log2 enrichment ratio": 2.3}
{"Molecule": "TITHNRTPWGSHHIH", "minimum log2 enrichment ratio": 3.4}
{"Molecule": "NWYVSDHTDNHHSMA", "minimum log2 enrichment ratio": 2.49}
{"Molecule": "WMPVNYNGKHHSHTV", "minimum log2 enrichment ratio": 5.89}
{"Molecule": "HGPYHVPRHVPYKYG", "minimum log2 enrichment ratio": 3.32}
{"Molecule": "RDTEIIFLPQYIIGY", "minimum log2 enrichment ratio": 3.9}
{"data": "Block 2", "target": "vanadate, free oxyanion", "method": "microfluidic competitive inhibition", "matrix": "in vitro, cell-free expressed", "concentration": "not given", "notes": "derived from inhibition constants, unchanged parent 676 nM", "reading": "lower = stronger binding", "parent": "PafA, mature enzyme, eGFP fusion (Elizabethkingia meningoseptica, UniProt Q9KJX5); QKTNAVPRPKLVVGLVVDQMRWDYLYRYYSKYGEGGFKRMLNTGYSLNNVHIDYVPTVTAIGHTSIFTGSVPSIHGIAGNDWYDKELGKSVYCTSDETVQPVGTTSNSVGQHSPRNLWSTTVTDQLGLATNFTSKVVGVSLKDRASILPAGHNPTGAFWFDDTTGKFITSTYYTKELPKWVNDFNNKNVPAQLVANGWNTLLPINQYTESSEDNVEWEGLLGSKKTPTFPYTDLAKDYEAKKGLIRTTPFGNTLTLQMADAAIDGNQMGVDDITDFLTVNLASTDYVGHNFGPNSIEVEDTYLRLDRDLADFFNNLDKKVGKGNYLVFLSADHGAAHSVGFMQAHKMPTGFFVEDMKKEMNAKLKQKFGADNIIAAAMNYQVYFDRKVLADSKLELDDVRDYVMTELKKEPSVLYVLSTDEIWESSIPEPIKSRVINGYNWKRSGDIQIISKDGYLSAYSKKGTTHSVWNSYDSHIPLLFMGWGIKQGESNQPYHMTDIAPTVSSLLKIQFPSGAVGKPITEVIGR"}
{"Substitution": "S426G", "oxyanion analog dissociation constant": "0.746 µM"}
{"Substitution": "I485V", "oxyanion analog dissociation constant": "1.86 µM"}
{"Substitution": "N315V", "oxyanion analog dissociation constant": "0.808 µM"}
{"Substitution": "D317V", "oxyanion analog dissociation constant": "2.76 µM"}
{"Substitution": "G138V", "oxyanion analog dissociation constant": "0.833 µM"}
{"Substitution": "D213G", "oxyanion analog dissociation constant": "0.561 µM"}
{"Substitution": "T228G", "oxyanion analog dissociation constant": "0.839 µM"}
{"data": "Block 3", "target": "CCNE2, cyclin fold, Cln2 fusion (human)", "method": "yeast growth competition, sequencing", "matrix": "yeast", "notes": "strong parent motif", "reference": "not given", "reading": "higher = stronger binding", "parent": "viral docking peptide; KGVKRKLFAEDSS"}
{"Substitution": "L7W", "normalised enrichment score": 0.0528}
{"Substitution": "V3S", "normalised enrichment score": 1.14}
{"Substitution": "D11M", "normalised enrichment score": 5.41}
{"Substitution": "S12F", "normalised enrichment score": 6.85}
{"Substitution": "A9I", "normalised enrichment score": 6.81}
{"Substitution": "D11T", "normalised enrichment score": 6.43}
{"Substitution": "V3K", "normalised enrichment score": 0.585}
{"Substitution": "D11E", "normalised enrichment score": 7.06}
{"data": "Mixed results"}
{"Compound": "O=C(NS(=O)(=O)c1ccc(NCC2CCOCC2)c([N+](=O)[O-])c1)c1ccc(N2CCN(Cc3ccc(C(F)(F)F)cc3-c3ccc(Cl)cc3)CC2)cc1Oc1cnc2[nH]ccc2c1", "target": "5-hydroxytryptamine receptor 2C (HTR2C, Homo sapiens, UniProt P28335)", "observed": "ligand displacement", "concentration": "10 µM", "quantity": "inhibition", "value": "-0.17%"}
{"note": "Repeated from above (block 3):"}
{"Substitution": "A9I", "normalised enrichment score": 6.81}
